Assay results of several laboratories.
Each line is one published result; not all experiments were run side by side. “And” joins repeats or separate records; there may be more than shown. Numbers after ± are the reported error.
CARM1: Histone-arginine methyltransferase CARM1 (CARM1, Homo sapiens, UniProt Q86X55)
Sequence of UniProt Q86X55 (whole entry, looked up): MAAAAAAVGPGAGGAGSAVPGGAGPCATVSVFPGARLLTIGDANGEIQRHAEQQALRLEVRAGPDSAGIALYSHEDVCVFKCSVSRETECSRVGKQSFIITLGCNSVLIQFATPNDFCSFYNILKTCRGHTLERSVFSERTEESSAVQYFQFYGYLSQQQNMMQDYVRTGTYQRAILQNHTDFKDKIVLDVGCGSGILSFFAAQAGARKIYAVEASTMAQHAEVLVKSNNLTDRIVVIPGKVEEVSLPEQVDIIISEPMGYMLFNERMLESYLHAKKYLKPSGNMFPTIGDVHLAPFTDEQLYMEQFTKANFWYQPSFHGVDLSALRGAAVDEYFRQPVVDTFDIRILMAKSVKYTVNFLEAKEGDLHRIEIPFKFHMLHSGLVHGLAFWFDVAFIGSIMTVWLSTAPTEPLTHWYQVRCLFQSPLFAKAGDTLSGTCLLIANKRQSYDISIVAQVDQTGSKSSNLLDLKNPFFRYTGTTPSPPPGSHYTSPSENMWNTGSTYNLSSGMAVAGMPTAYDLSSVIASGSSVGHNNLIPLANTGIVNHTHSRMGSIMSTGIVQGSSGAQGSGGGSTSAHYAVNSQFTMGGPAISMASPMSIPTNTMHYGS
DPP9: Dipeptidyl peptidase 9 (DPP9, Homo sapiens, UniProt Q86TI2)
Sequence of UniProt Q86TI2 (whole entry, looked up): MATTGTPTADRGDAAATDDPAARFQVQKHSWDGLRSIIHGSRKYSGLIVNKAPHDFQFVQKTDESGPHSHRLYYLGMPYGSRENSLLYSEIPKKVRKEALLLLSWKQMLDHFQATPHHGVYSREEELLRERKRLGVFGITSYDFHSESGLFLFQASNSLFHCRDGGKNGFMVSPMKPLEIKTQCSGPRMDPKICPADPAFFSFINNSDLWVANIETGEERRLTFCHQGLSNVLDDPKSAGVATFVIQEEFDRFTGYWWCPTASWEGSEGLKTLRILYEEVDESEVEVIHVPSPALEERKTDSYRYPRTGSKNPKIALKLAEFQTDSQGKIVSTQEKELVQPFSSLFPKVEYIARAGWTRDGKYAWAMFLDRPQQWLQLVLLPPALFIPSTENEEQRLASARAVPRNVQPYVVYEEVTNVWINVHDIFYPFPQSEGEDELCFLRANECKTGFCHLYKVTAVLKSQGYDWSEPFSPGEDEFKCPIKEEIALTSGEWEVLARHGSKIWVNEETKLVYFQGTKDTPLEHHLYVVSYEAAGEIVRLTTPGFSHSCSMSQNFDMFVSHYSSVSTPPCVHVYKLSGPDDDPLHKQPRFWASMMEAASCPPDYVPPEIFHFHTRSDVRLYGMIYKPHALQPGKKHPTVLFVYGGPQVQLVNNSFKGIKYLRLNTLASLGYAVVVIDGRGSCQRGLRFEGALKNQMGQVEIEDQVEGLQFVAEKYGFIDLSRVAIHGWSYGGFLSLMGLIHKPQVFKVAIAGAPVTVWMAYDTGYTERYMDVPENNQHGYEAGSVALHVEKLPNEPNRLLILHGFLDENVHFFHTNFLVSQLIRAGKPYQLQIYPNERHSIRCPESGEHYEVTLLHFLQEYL
CELA1: Chymotrypsin-like elastase family member 1 (CELA1, Sus scrofa, UniProt P00772)
Sequence of UniProt P35030 (whole entry, unmodified, looked up): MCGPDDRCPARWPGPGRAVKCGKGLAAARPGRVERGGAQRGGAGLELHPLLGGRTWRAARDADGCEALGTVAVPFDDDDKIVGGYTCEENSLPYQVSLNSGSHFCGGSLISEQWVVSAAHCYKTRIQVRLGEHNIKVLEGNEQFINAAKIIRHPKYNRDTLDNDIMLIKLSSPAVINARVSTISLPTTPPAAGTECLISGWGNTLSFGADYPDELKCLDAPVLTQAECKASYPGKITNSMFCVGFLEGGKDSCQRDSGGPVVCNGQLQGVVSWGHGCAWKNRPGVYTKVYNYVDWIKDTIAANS
Sequence of UniProt P00772 (whole entry, looked up): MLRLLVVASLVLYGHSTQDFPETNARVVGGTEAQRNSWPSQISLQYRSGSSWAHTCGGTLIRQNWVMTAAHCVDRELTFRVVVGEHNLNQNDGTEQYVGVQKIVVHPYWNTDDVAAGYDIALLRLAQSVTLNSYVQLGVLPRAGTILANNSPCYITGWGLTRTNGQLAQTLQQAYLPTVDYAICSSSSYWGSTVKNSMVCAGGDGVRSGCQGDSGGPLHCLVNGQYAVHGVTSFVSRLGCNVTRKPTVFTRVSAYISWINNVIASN
Sequence of UniProt P28222 (whole entry, looked up): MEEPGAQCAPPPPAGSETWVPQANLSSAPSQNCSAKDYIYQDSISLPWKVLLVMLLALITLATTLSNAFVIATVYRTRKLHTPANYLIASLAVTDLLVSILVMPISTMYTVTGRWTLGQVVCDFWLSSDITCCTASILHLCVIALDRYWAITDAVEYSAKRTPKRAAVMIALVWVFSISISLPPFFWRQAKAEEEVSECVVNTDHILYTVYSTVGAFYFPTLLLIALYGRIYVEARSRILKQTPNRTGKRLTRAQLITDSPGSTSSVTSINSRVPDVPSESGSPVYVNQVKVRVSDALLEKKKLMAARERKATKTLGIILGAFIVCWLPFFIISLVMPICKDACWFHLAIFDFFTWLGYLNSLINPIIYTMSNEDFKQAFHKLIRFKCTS
Sequence of UniProt P18031 (whole entry, looked up): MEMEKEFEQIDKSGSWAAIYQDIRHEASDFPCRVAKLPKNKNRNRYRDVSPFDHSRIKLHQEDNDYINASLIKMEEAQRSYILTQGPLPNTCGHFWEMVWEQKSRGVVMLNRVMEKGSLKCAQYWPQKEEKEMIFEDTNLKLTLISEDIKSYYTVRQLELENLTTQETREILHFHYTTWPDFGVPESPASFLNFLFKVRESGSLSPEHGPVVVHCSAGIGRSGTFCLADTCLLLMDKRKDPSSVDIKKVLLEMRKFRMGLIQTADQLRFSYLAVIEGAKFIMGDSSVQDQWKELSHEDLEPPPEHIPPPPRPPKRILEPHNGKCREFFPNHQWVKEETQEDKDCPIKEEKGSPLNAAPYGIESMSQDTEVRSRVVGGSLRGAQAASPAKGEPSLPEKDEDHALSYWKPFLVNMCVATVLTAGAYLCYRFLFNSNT
Sequence of UniProt P23975 (whole entry, looked up): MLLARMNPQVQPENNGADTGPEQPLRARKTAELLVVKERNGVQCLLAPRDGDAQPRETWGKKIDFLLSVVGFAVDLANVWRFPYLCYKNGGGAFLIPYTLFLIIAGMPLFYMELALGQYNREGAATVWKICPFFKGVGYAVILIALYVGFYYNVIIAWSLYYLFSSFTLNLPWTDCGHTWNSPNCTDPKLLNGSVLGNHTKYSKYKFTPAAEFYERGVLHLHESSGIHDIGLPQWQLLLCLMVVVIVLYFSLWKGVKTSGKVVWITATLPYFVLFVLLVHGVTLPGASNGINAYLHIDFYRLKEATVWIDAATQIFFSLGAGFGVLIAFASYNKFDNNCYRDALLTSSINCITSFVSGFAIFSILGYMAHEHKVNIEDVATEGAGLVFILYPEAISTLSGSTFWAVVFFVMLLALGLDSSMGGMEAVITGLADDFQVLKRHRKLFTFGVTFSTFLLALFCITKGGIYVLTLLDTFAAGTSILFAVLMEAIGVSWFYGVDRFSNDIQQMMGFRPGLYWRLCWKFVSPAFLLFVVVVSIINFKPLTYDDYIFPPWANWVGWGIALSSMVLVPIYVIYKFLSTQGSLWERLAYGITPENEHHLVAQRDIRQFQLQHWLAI
Sequence of UniProt A5K302 (whole entry, looked up): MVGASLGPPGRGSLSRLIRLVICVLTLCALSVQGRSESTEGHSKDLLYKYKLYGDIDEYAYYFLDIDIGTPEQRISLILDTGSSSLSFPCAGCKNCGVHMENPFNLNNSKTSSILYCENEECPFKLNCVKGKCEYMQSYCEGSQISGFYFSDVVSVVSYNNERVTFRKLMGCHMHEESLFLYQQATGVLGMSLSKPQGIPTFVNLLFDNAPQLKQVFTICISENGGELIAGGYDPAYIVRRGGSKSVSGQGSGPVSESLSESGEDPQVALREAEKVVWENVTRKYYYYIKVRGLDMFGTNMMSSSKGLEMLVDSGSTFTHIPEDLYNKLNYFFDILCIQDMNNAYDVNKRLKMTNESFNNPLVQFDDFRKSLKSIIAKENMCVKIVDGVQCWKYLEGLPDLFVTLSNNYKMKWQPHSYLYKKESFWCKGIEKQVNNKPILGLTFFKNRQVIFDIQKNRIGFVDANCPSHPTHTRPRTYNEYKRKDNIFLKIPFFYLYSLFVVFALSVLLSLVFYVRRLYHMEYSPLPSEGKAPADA
Sequence of UniProt P11086 (whole entry, looked up): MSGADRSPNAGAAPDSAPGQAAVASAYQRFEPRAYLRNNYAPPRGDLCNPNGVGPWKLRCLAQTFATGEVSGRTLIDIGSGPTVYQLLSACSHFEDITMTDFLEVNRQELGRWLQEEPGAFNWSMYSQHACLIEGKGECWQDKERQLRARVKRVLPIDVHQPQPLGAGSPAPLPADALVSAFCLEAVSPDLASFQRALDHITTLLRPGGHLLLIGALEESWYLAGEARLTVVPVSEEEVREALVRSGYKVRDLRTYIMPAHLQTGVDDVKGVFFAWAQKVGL
Sequence of UniProt P30518 (whole entry, looked up): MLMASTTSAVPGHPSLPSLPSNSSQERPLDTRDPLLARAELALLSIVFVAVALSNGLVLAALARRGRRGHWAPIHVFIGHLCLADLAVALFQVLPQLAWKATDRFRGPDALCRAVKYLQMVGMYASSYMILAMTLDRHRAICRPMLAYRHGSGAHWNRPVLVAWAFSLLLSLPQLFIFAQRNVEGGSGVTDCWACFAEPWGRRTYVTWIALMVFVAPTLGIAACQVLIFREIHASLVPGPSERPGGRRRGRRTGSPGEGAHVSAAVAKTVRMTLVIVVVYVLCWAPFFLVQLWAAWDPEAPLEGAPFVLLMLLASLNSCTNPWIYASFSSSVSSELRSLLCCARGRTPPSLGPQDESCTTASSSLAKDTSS

target | test | conditions | Ki | SMILES
CARM1 | enzyme activity, inhibitor | – | 0.036 µM | CC(=O)N[C@@H](C)C(=O)N1CCC[C@H]1C(=O)N[C@@H](CCCNC(=N)NCCC[C@H]1O[C@@H](n2cnc3c(N)ncnc32)[C@H](O)[C@@H]1O)C(=O)N[C@@H](CCCCN)C(=O)N[C@@H](CCC(N)=O)C(=O)N[C@@H](CC(C)C)C(N)=O (relative stereo)
plasmepsin X (Plasmodium knowlesi, UniProt A0A384K9C7) | enzyme activity, inhibitor, peptide cleavage | – | 2.1e-05 ± 4e-06 µM | CCC1(CC)CC(=O)N(C2CCOc3ccc(C(=O)NC4CC(C)(C)Oc5ccccc54)cc32)C(=N)N1 (centres unmarked)
DPP9 | enzyme activity, inhibitor, fluorescence | – | 0.044 µM | O=C1N(c2cccc(CN3CCN(Cc4ccc(Br)cc4)CC3)c2)C(=O)C12CCCCC2
PNMT (Homo sapiens, UniProt P11086) | enzyme activity, inhibitor, coupled-enzyme | – | 0.012 ± 0.001 µM | Nc1ncnc2c1ncn2C1OC(CN(CCCC2CNCc3c2ccc(Cl)c3Cl)CCC(N)C(=O)O)C(O)C1O (mixture of isomers)
CA9 (Homo sapiens, UniProt Q16790) | – | pH 7.5 | 0.063 µM | CC[C@H](C)[C@H](N)C(=O)NS(=O)(=O)CC(=O)N[C@]1(C(=O)O)[C@@H]2CN(C)C=C(C(N)=O)[C@@H]2C[C@@H]1O
Catenin beta-1, armadillo repeat domain (Mus musculus, UniProt Q02248) | binding to HD2, inhibitor, ELISA | added: His-HD2 with GST-ARD | 6.3 ± 2.7 µM | O=C(/C=C/c1ccc(O)cc1)OC(CO)C(=O)O (centres unmarked)
CELA1 | enzyme activity, inhibitor, absorbance | – | 382 µM | CC(C)Oc1ccc(B(O)O)c(F)n1
AVPR2 (Homo sapiens, UniProt P30518) | ligand displacement, radioligand | cell membranes | 0.0018 µM | CC(C)[C@@H]1NC(=O)[C@H](Cc2ccccc2)NC(=O)[C@H](Cc2ccc(O)cc2)NC(=O)CCSSC[C@@H](C(=O)N2CCC[C@H]2C(=O)N[C@H](CCCNC(=N)N)C(=O)NCC(N)=O)NC(=O)[C@H](CC(N)=O)NC1=O
CELA1 | enzyme activity, inhibitor, absorbance | – | 2880 µM | OB(O)c1cnn(-c2cc(Cl)ncn2)c1
DPP9 | enzyme activity, inhibitor, fluorescence | – | > 2 µM | CCC1(CC)C(=O)N(c2cccc(CN3CCN(Cc4ccc(Br)c5ccccc45)CC3)c2)C1=O
PTPN1 (Homo sapiens, UniProt P18031) | enzyme activity, inhibitor | – | 7.02 µM | O=S(=O)(O)O/N=C(/CCc1ccccc1)S[C@@H]1O[C@H](CO)[C@@H](O)[C@H](O)[C@H]1O
DPP9 | enzyme activity, inhibitor, fluorescence | – | 1.26 µM | CCCC1(CC)C(=O)N(c2cccc(CN3CCN(Cc4ccc(Br)cc4)CC3)c2)C1=O
CARM1 | enzyme activity, inhibitor | – | 0.137 µM | CC(=O)N[C@@H](CCCCN)C(=O)N[C@@H](C)C(=O)N1CCC[C@H]1C(=O)N[C@@H](CCCNC(=N)NCCC[C@H]1O[C@@H](n2cnc3c(N)ncnc32)[C@H](O)[C@@H]1O)C(=O)N[C@@H](CCCCN)C(=O)N[C@@H](CCC(N)=O)C(=O)N[C@@H](CC(C)C)C(=O)N[C@@H](C)C(N)=O (relative stereo)
DPP9 | enzyme activity, inhibitor, fluorescence | – | 0.148 µM | CCC1(CC)C(=O)N(c2cc(C(=O)OC)cc(C(=O)N3CCN(Cc4ccc(Br)cc4)CC3)c2)C1=O
Plasmepsin V (PMV, Plasmodium vivax, UniProt A5K302) | peptide cleavage, inhibitor | – | 23.1 ± 6.83 µM | CCC1(CC)CC(=O)N(C2c3cc(C(=O)NC4c5ccccc5CC4O)ccc3OC2(C)COC)C(=N)N1 (centres unmarked)
DPP9 | enzyme activity, inhibitor, fluorescence | – | 0.202 µM | CC1(Cc2ccccc2)C(=O)N(c2cccc(CN3CCN(Cc4ccc(Br)cc4)CC3)c2)C1=O
Trypsin-3 (Homo sapiens, UniProt P35030, W279Q) | enzyme activity, inhibitor, mixed model kinetics | – | 245 µM and 233 µM | Cc1nc(-c2c[nH]c(C(=O)Nc3ncccc3O)c2)cs1
HTR1B (Homo sapiens, UniProt P28222) | ligand displacement, radioligand | – | 0.23 µM | Cn1ccc2c(N3CCN(CCCCOc4ccc5c(c4)NC(=O)CC5)CC3)cccc21
SLC6A2 (Homo sapiens, UniProt P23975) | ligand displacement, radioligand | – | 2.9 µM | CCOC(=O)C12CC1C(n1cnc3c(NC)nc(C#Cc4ccc(Br)s4)nc31)C(O)C2O (centres unmarked)
MAPK8 (Homo sapiens, UniProt P45983) | SPR two-step binding model | wild-type protein surface | 0.0071 µM | COC(=O)[C@@]1(C(C)C)C=C(C(=O)Nc2cccc(C(=O)Nc3ccc(Nc4nccc(-c5cccnc5)n4)c(C)c3)c2)C(=O)CC1
